# Results gathered from unrelated publications.
# Numbered parts are unrelated; each lists some results of a single study.
# UniProt Q99759, sequence (whole entry, looked up): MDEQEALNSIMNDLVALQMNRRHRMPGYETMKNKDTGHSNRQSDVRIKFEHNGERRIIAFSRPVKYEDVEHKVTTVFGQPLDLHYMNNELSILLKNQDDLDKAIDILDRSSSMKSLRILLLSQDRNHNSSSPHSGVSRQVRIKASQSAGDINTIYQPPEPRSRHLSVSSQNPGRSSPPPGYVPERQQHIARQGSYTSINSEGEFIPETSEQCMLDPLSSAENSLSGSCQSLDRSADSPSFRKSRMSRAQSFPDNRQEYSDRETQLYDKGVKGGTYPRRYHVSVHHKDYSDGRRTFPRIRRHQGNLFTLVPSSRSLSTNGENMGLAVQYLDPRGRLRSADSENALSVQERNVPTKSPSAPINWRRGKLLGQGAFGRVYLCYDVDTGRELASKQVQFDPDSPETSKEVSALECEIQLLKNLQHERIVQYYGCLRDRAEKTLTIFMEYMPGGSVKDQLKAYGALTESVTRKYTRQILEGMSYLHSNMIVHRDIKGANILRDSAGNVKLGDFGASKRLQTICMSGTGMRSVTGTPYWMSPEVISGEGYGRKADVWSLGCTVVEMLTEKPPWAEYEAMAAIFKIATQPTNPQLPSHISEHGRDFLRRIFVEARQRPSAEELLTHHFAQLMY
# UniProt P35626, sequence (whole entry, looked up): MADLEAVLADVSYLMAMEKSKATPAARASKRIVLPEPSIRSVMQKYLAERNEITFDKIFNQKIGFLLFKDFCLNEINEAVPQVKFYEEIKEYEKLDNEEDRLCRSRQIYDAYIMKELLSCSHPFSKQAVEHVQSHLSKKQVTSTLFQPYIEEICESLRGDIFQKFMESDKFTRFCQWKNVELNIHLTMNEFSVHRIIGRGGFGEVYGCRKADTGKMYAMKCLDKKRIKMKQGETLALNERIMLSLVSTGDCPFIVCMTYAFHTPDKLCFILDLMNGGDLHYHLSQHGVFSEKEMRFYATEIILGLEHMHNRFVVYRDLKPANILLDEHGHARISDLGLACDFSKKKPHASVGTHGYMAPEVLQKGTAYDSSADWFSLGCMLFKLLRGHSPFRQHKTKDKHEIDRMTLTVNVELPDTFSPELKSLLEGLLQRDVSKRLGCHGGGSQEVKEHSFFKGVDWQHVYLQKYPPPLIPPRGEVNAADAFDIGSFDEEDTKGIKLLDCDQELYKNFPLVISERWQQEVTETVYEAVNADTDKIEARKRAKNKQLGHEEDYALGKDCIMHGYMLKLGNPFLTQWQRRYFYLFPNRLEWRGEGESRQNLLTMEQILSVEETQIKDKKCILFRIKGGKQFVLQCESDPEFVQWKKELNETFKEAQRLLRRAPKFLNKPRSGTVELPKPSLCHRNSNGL
# UniProt Q14164, sequence (whole entry, looked up): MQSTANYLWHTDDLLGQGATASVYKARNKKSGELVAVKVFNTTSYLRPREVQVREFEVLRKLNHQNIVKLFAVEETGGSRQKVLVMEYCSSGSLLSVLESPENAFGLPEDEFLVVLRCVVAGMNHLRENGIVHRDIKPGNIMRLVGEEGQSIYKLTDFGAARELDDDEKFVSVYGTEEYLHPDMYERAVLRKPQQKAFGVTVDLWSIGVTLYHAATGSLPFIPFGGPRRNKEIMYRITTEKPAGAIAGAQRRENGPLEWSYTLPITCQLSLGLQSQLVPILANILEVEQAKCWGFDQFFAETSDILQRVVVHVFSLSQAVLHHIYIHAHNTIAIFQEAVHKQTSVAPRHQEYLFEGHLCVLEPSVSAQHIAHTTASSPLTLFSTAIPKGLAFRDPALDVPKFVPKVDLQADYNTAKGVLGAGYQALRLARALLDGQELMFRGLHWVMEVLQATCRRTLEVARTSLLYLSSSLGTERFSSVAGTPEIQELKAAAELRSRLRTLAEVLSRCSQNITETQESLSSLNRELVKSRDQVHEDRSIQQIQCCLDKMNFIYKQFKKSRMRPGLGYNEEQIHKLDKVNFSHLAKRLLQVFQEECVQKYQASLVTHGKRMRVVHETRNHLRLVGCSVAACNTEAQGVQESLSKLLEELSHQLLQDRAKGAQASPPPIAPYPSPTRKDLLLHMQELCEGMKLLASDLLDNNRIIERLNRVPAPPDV
# UniProt P11802, sequence (whole entry, looked up): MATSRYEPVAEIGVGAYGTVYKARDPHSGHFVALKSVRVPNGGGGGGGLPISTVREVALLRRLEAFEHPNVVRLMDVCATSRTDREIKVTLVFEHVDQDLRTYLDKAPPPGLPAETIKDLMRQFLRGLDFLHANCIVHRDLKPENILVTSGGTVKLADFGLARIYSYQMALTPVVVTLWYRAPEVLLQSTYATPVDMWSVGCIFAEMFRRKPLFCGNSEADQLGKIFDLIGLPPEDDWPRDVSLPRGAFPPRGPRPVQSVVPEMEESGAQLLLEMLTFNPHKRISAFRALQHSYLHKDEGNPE
# UniProt O96017, sequence (whole entry, looked up): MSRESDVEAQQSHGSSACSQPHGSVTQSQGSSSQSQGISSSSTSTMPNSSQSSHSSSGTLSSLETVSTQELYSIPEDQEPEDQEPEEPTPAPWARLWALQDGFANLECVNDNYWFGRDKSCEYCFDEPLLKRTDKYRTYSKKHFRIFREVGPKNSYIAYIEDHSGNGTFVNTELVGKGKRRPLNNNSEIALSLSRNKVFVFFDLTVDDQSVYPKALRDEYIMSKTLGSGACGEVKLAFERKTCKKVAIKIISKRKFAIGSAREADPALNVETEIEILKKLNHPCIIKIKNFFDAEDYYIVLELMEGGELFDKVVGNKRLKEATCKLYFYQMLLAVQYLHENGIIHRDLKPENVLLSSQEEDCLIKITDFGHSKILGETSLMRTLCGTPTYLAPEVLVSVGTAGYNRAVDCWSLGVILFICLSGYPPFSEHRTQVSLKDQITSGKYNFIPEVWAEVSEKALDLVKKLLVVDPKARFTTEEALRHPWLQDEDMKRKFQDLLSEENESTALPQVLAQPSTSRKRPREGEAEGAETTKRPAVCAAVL
# UniProt O95747, sequence (whole entry, looked up): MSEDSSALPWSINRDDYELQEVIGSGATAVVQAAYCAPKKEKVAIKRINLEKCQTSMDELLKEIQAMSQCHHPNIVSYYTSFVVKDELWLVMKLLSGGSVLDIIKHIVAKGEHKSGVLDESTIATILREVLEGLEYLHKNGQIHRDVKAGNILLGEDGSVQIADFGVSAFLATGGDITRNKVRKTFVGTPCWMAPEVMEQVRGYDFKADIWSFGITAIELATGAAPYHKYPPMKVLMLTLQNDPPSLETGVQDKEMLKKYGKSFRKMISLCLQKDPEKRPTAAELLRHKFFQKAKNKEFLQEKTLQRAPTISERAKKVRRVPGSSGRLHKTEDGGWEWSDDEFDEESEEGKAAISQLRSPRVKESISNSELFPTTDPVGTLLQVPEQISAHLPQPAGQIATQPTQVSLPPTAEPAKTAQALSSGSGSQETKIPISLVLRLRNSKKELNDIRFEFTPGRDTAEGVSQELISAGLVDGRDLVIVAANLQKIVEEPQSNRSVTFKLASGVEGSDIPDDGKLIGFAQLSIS
# UniProt P36897, sequence (whole entry, looked up): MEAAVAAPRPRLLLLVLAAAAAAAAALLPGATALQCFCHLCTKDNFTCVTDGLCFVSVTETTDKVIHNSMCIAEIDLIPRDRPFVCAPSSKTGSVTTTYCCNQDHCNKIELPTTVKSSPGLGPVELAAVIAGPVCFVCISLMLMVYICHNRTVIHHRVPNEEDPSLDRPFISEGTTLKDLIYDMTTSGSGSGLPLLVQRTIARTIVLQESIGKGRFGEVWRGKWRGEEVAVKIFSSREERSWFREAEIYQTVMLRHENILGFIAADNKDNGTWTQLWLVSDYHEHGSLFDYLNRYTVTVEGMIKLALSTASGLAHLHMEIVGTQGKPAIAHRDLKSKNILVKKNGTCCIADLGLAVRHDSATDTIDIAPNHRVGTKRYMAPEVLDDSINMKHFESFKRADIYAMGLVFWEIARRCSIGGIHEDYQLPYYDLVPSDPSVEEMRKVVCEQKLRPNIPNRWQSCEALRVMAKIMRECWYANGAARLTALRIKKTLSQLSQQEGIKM

# Series 1
# Target: Centromere-binding protein 1, full length, His-tagged (CBF1, Saccharomyces cerevisiae, UniProt P17106, residues 1-351)
# UniProt P17106, sequence (whole entry, looked up): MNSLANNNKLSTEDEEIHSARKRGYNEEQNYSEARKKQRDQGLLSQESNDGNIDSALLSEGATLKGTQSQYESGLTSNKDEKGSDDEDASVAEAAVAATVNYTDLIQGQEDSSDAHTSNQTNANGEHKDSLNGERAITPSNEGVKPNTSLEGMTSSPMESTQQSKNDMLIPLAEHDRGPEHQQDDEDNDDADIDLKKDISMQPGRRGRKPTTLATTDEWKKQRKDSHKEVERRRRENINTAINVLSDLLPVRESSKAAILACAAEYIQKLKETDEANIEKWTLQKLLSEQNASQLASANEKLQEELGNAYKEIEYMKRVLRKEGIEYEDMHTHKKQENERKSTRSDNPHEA
# Method: competition protein-binding microarray
# Molecule type: double-stranded DNA, one strand shown
# Medium: in vitro
# Tested at: 2 µM
# Notes: whole 60-bp probe, lowest competitor level
# Added: Pho4 competitor, 0.05 µM
# Reading: higher = stronger binding
Oligonucleotide,fluorescence intensity [a.u.]
AAATTACTAAGTTGTAAAGTGGGTGACGCCGTATGAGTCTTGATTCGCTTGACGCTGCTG,70.7
TGCGCAACAACTTGCGCAGTGGGTGTATGTCTAGAAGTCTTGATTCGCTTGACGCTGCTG,68.1
CATTGCCGGCCCGGCCACGTGCAAAGTCTGGTTGAGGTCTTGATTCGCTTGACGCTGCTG,1270
ACCTTGGTCCAAGGTCACGAGGAGCTGTCCAAGGTCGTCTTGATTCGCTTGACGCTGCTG,641
TTGGTCCAGTTCTCGCCCGTGATGGGAGAACAAGTAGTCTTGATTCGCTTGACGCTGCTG,100
GGTAAAAAGCACAGGCATGTGAATTGCACAGCAGTGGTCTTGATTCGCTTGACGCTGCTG,126
AAAGCGGTAATTTTTCACGTGTGTTCACATATCTATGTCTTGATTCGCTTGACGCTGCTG,791
TCAAGCTATGGGATGCGCGTGCTTTGCAACTGGCTAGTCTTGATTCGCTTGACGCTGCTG,96

# Series 2
# Target: PABPC1L2, full length, GST fusion (mouse, UniProt A0ABA7IW68)
# Method: RNAcompete
# Molecule type: RNA
# Medium: in vitro
# Tested at: 20 nM
# Notes: 7-mer, probes averaged, single round
# Baseline: mean of 7-mers
# Reading: higher = stronger binding
# Target sequence (chain): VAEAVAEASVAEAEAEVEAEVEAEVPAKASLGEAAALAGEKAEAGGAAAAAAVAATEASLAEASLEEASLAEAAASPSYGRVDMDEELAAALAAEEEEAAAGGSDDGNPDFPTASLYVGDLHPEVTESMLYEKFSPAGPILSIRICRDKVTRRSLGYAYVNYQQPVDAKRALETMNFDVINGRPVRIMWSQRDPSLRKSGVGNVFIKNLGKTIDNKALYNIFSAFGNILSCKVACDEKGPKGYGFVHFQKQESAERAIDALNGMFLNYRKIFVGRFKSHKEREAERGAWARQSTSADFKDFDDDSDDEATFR
Oligonucleotide,7-mer Z-score
GCAUGGU,-0.151
GUGAAGU,-0.228
GGAAUUG,-0.0464
UACUGGA,0.12
ACGGGGC,0.135
CUUUUAC,0.075
GGGAGCG,0.345
AUGAUGG,0.222

# Series 3
# Target: Muscarinic acetylcholine receptor M2 (CHRM2, Homo sapiens, UniProt P08172)
# UniProt P08172, sequence (whole entry, looked up): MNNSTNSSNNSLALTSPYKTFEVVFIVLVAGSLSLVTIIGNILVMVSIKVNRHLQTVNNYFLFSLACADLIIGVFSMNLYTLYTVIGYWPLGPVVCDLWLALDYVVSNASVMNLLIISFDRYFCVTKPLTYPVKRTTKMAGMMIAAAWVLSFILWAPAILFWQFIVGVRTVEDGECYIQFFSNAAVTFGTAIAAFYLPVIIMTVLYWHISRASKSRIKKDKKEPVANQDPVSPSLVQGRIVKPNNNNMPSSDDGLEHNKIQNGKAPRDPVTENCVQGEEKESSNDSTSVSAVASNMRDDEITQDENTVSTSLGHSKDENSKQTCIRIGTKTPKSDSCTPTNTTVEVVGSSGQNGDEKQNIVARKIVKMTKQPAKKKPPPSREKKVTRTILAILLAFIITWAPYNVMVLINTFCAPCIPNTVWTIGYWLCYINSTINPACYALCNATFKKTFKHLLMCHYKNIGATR
# Observed: binding
# Method: radioligand binding
# Tested at: 10 µM
Compound,inhibition
CC1=C(C#N)C(c2ccc3c(c2)c(NC(=O)c2ccccc2C)nn3C)C(C#N)=C(C)N1,-2.08%
CCCOc1ccc([C@H]2[C@H](C(=O)O)[C@@H](c3ccc4c(c3)OCO4)CN2CC(=O)Nc2c(CC)cccc2CC)cc1,-5.3%
CN1CCN(C(=O)C(C)(C)c2ccc(C(=O)Nc3cn4cc(-c5ccncc5)ccc4n3)cc2)CC1,3.82%
Nc1c(C(=O)NCc2ccc(C(=O)NCCCC3CCCCC3)cc2)cnn1-c1ccccc1,22.5%

# Series 4
# SMILES: C[C@@H](N)[C@H]1CC[C@H](C(=O)Nc2ccncc2)CC1
# Observed: enzyme activity
# Mode: inhibitor
# Tested at: 0.5 µM
# Baseline: control
target,remaining activity
"Cyclin-dependent kinase 4, with cyclin D1 (CDK4, Homo sapiens, UniProt P11802)",96.8%
"Death-associated protein kinase 2 (DAPK2, Homo sapiens, UniProt Q9UIK4)",94.8%
"Serine/threonine-protein kinase Chk2 (CHEK2, Homo sapiens, UniProt O96017)",95.6%
"Serine/threonine-protein kinase OSR1 (OXSR1, Homo sapiens, UniProt O95747)",90.1%
"Mitogen-activated protein kinase kinase kinase 3 (MAP3K3, Homo sapiens, UniProt Q99759)",103%
"TGF-beta receptor type-1 (TGFBR1, Homo sapiens, UniProt P36897)",98%
"TGF-beta receptor type-2 (TGFBR2, Homo sapiens, UniProt P37173)",110%
"Cyclin-dependent kinase 5, with p25 (CDK5, Homo sapiens, UniProt Q00535)",89.6%
"Inhibitor of nuclear factor kappa-B kinase subunit epsilon (IKBKE, Homo sapiens, UniProt Q14164)",97.6%
"cGMP-dependent protein kinase 1, isoform beta (PRKG1, Homo sapiens, UniProt Q13976)",83.5%
"Tyrosine-protein kinase Lyn, isoform B (LYN, Homo sapiens, UniProt P07948)",97.3%
"G protein-coupled receptor kinase 3 (GRK3, Homo sapiens, UniProt P35626)",93.8%
"Mitogen-activated protein kinase 9 (MAPK9, Homo sapiens, UniProt P45984)",103%
"Calcium/calmodulin-dependent protein kinase kinase 2 (CAMKK2, Homo sapiens, UniProt Q96RR4)",101%
"STE20/SPS1-related proline-alanine-rich protein kinase (STK39, Homo sapiens, UniProt Q9UEW8)",95.8%
